Results gathered from unrelated publications.
“And” joins repeats or separate records; there may be more than shown. ± marks the error that the study gave.
Sequence of UniProt Q92851 (whole entry, looked up): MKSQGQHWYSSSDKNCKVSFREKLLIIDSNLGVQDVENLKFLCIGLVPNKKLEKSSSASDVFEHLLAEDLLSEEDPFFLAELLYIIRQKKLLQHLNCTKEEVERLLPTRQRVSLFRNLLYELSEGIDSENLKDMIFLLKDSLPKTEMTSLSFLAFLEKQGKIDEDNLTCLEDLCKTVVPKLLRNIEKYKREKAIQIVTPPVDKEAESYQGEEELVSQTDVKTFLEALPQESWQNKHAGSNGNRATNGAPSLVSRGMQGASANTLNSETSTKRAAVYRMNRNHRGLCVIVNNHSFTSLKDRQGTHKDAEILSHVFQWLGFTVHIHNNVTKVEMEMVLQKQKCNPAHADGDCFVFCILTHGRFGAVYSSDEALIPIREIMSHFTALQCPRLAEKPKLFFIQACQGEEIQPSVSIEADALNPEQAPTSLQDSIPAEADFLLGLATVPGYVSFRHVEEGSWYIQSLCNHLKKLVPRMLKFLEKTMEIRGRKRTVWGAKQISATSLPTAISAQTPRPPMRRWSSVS
Sequence of UniProt P21917 (whole entry, looked up): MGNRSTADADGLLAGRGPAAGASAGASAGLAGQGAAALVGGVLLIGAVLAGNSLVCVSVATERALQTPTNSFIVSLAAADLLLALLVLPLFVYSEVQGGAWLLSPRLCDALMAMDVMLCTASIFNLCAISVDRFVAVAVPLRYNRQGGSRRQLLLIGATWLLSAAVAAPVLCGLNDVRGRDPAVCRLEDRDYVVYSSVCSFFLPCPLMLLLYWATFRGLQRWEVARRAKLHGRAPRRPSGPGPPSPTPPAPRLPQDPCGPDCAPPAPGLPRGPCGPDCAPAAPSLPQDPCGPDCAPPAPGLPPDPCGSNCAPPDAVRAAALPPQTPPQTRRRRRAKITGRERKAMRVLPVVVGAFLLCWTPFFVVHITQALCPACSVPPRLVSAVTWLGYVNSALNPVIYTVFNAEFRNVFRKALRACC

| Structure (SMILES) | tested on | test | test system | conditions | how to read | endpoint | result |
| --- | --- | --- | --- | --- | --- | --- | --- |
| CN(C)C(=O)c1ccnc(N2Cc3cn(Cc4ccc(F)cc4F)nc3C2)n1 |  |  | mouse, hippocampal slice, Schaffer collaterals | dose not given, interstimulus interval 1000 | reference: second over first response | paired-pulse ratio | 1.11 and 1.28 and 1.08 and 1.1 and 1.03 and 1.14 and 1.23 and 1.02 |
| COc1cc(O)ccc1CCC(c1ccc(O)cc1)c1cc2c(c(C)c1O)OC(c1ccc(O)cc1)CC2 (mixture of isomers) |  | item: PGD2 | human whole blood | 0.3 µM, with: Escherichia coli |  | amount | 135 ± 64 pg/mL blood |
| Cc1cc(C)cc(NC(=O)CCN2CCCCCC2)c1 |  |  | zebrafish larvae, 7 dpf | 10 µM, minute 4 |  | larval motion | 22.3 ± 2.2 pixels/frame |
| CN1CCCNC(=O)c2cccc(c2)C(=O)NCCCN(C)CCCNc2cccc3c2C(=O)c2cccc(c2C3=O)NCCC1 |  |  | SAS xenograft, KSN/Slc nude mice | dose not given, 96 h (day 4), group mean |  | tumour volume | 160 mm3 |
| CC(=O)N[C@H](C(=O)N[C@@H](CCCC(=O)O)C(=O)N[C@@H](CCC1CCCCC1)C(=O)N[C@@H](CC(=O)O)C(=O)COC(=O)c1c(C)cccc1C)C(C)(C)C | Caspase-10 (CASP10, Homo sapiens, UniProt Q92851) | enzyme activity, inhibitor |  |  |  | kinact/KI | 484000 M⁻¹ s⁻¹ |
| Cc1cc(OCCOCCN(C)C)cc(C(C)C)c1 |  | locomotor activity in dark | zebrafish larvae, 7 dpf | 10 µM, minute 5, dark phase |  | larval motion | 1.3 ± 0.4 pixels/frame |
| COc1ccc2cc3[n+](cc2c1OCCCOC(=O)c1cscn1)CCc1cc2c(cc1-3)OCO2 |  |  | HFD-fed C57BL/6 mouse | dose not given |  | maximum LDL-C reduction | ≤ 62.4% |
| O=C(CCN1CCN(C/C=C/c2ccccc2)CC1)Nc1ccc2c(c1)CCC2 |  | locomotor activity in dark | zebrafish larvae, 7 dpf | 10 µM, minute 5, dark phase |  | larval motion | 5.8 ± 1 pixels/frame |
| Nc1ncc(-c2cc(-c3cnn(CC(F)(F)F)c3)ncc2F)nc1C(=O)NC1CNCC(F)C1 (stereo not shown) | AXL | KINOMEscan |  | 1 µM | reference: DMSO control | remaining binding | 20% |
| CCN(CC)CC#CCNc1ccnc2cc(Cl)ccc12 | Salmonella typhimurium | mini-Ames test | TA98 | 1000.0 µg/well, without S9 |  | mean revertants | 3 revertants/well |
| CN(Cc1ccc(/C=C/C(=O)NO)cc1)CC12CC3CC(CC(C3)C1)C2 |  | item: H4K12ac | mouse | 24 h, cell-based |  | EC50 | 100 nM |
| C=CC(=O)Nc1cccc(Cn2ncc3cnc(Nc4cnn(CCOC)c4)nc32)c1 | human AMPK-alpha1 | KINOMEscan |  | 100 nM | reference: control | binding | 100% |
| OC(COCC1COc2ccccc2O1)CN1CCN(c2ccccc2)CC1 (stereo not shown) |  |  | zebrafish larvae, 7 dpf | 10 µM, minute 6 |  | larval motion | 3 ± 1.2 pixels/frame |
| CC(=O)[O-].O.O.O.O.[Ni+2].[O-]c1ccc(Br)cc1C=NCCN1CCOCC1 |  | hydroxyl radical scavenging |  | 120 µM |  | inhibition | 32.8% |
| COc1ccccc1C1CCN(CCC(=O)Nc2ccc(C)c(C)c2)CC1 |  |  | zebrafish larvae, 7 dpf | 10 µM, minute 2 |  | larval motion | 2.5 ± 1.2 pixels/frame |
| CCCCCc1ccc(S(=O)(=O)N2CC2C(=O)OC)cc1 (stereo not shown) |  |  | mouse, Lewis lung carcinoma | intraperitoneal, 5 mg/kg, 16 doses, day 15 |  | tumour growth inhibition | 67% |
| CNS(=O)(=O)Nc1nccc(Cc2c(C)c3ccc(Oc4ncccc4F)cc3oc2=O)c1F | HCC1395 | cell viability |  | 7 days |  | IC50 | > 1000 nM |
| C[C@@H]1CN(c2ccnc(C(=O)N[C@H]3C[C@@H]3c3ccccc3)c2)CC[C@@H]1O |  |  | female heterozygous Slc6a8 P549L mice, brain | oral, 30 mg/kg once daily |  | creatine concentration | 1040 µg/mL and 1170 µg/mL and 1070 µg/mL |
| Cc1cnc2nc1Nc1cccc(c1)COC/C=C/COCc1cc(ccc1OCCN1CCOCC1)N2 |  |  | BALB/c mice rhEPO-induced polycythemia, spleen | 75 mg/kg |  | CD71/Ter119 cells | 19.3% and 22.5% and 20.3% and 19.6% and 15.7% and 23.4% |
| CCCCCCCCCCCCCCCC(=O)OCC(CSC[C@H](N)C(=O)N[C@@H](CO)C(=O)N[C@@H](CCCCN)C(=O)N[C@@H](CCCCN)C(=O)N[C@@H](CCCCN)C(=O)N[C@@H](CCCCN)C(=O)NCCCCCC(=O)N[C@@H](CCCCN)C(=O)N[C@@H](CC(C)C)C(=O)N[C@H](C(=O)N[C@@H](Cc1ccccc1)C(=O)N[C@@H](Cc1ccccc1)C(=O)N[C@@H](Cc1ccc2ccccc2c1)C(=O)O)C(C)C)OC(=O)CCCCCCCCCCCCCCC (stereo partly shown) |  | thioflavin S staining, item: amyloid-beta plaque | APP/PS1 transgenic mouse, cortex | intracortical injection, dose not given |  | plaque density | 58.9 /mm2 and 89.4 /mm2 and 83 /mm2 |

| Structure (SMILES) | tested on | test | test system | conditions | how to read | endpoint | result |
| --- | --- | --- | --- | --- | --- | --- | --- |
| CC(C)C[C@@H](NC(=O)[C@@H](CC(C)C)NC(=O)[C@@H](CC(=O)O)NC(=O)[C@@H](CC(C)C)NC(=O)[C@@H](CC(C)C)NC(=O)[C@@H](CC(C)C)NC(=O)[C@H](NC(=O)[C@@H](CC(=O)O)NC(=O)[C@H](NC(=O)[C@H]1CCCN1C(=O)[C@@H](Cc1ccccc1)NC(=O)[C@@H](CC(C)C)NC(=O)[C@@H](CC(C)C)NC(=O)[C@@H](CC(=O)O)NC(=O)[C@@H](CC(C)C)NC(=O)[C@@H](Cc1ccc(O)cc1)NC(=O)[C@@H](C)NC(=O)[C@@H](CCCNC(=N)N)NC(=O)[C@@H](Cc1c[nH]c2ccccc12)NC(=O)[C@H]1CCCN1C(=O)[C@@H](CC(N)=O)NC(=O)[C@@H](CCC(N)=O)NC(=O)[C@@H](CC(=O)O)NC(=O)[C@@H](CC(=O)O)NC(=O)[C@@H](CSC1CC(=O)N(CCNC(=O)CN2CCN(CC(=O)O)CCN(CC(=O)O)CC2)C1=O)NC(=O)[C@@H](C)N)[C@H](C)O)[C@H](C)O)C(=O)N[C@H](Cc1c[nH]c2ccccc12)C(=O)O (stereo partly shown) [copper-64 labelled] |  |  | C57BL/6 mice, female, B16-F10 melanoma, blood | intravenous, 14.5 h |  | tissue uptake | 12 %ID/g |
| O=C(CCCCCCc1ccccc1)c1ncc(-c2ccc(CBr)cn2)o1 |  |  | mouse, chronic constriction injury, contralateral paw | i.p., 30 mg/kg |  | cold allodynia | no effect |
| COc1ccc(CN2CCC(F)(F)C(COc3cccc(F)n3)C2)cc1F (stereo not shown) | DRD4 (Homo sapiens, UniProt P21917) | ligand displacement, radioligand |  | cell membranes |  | Ki | 150 nM |
| Cc1ncsc1-c1ccc(C(C)NC(=O)C2CC(O)CN2C(=O)C(NC(=O)CCCCCCCCCCN2CCCC(Nc3ncc(Cl)c(Nc4ccccc4S(=O)(=O)C(C)C)n3)C2)C(C)(C)C)cc1 (stereo not shown) | 22Rv1 | RNA-seq, item: PRR15L mRNA |  | concentration not given | reference: DMSO | log2 fold change | -1.6 |
| COC1CN([C@H]2CC[C@H]([C@@]3(C)Oc4c(Cl)cc(C(=O)NCc5c(SC)cc(C)[nH]c5=O)c(C)c4O3)CC2)C1 |  | RNA-seq, item: GAREM1 | human, whole blood | dose not given, 24 h | reference: pretreatment baseline | log2 fold change | 1.47 |
| Cc1cn(CC(=O)N(CCNC(=O)CN(CCNC(=O)CN(CCNC(=O)CN(CCNC(=O)CN(CCNC(=O)CN(CCNC(=O)CN(CCNC(=O)CN(CCN)C(=O)Cn2cnc3c(=O)[nH]c(N)nc32)C(=O)Cn2cnc3c(N)ncnc32)C(=O)Cn2cc(C)c(=O)[nH]c2=O)C(=O)Cn2cnc3c(=O)[nH]c(N)nc32)C(=O)Cn2cc(C)c(=O)[nH]c2=O)C(=O)Cn2cnc3c(=O)[nH]c(N)nc32)C(=O)Cn2cnc3c(N)ncnc32)CC(=O)NCCN(CC(=O)NCCOCCOCC(N)=O)C(=O)Cn2cnc3c(N)ncnc32)c(=O)[nH]c1=O |  | UV melting | RNA duplex with T·C mismatch | pH 7.2, 1 µM each strand |  | Tm | 29.9 °C |
| CN1CCC[C@]1(C)/C=C/S(=O)(=O)NC(=O)Nc1c2c(cc3c1CCC3)CCC2 |  | IL-18 release | human, whole blood ex vivo | oral, 50 mg twice daily, day 14, 336 h, multiple ascending dose, with: LPS and ATP |  | inhibition | 90.4% |
| COc1ccc2c(c1)c(CC(=O)[O-])c(C)n2C(=O)c1ccc(Cl)cc1.COc1ccc2c(c1)c(CC(=O)[O-])c(C)n2C(=O)c1ccc(Cl)cc1.[Co+2].c1c[nH]cn1.c1c[nH]cn1 |  | DPPH | methanol | concentration not given, 60 min |  | DPPH radical scavenging | 21.7 ± 0.67% |
| COc1ccc(C(=O)CCc2cc(C(CCc3ccc(O)cc3OC)c3ccc(O)cc3)c(O)cc2OC)cc1 (racemic) |  |  | human blood | 1 µM, with: A23187 |  | 14-HDHA level | 715 ± 180 pg/mL |
| CN(CCC#N)c1nc(NCC[C@H]2CCCN2C)nc2sc(-c3ccccc3)cc12 |  | force-pCa relationship | C57BL/6N mice, skinned left ventricular papillary fibres | 30 µM, 30 min, DMSO 13.36 |  | maximal tension | 10.9 mN |
| Cc1cn(CC(=O)N(CC(=O)N[C@H]2COC[C@@H]2N(CC(=O)NCCOCCOCC(N)=O)C(=O)Cn2cnc3c(N)ncnc32)[C@H]2COC[C@@H]2NC(=O)CN(C(=O)Cn2cnc3c(N)ncnc32)[C@H]2COC[C@@H]2NC(=O)CN(C(=O)Cn2cnc3c(=O)[nH]c(N)nc32)[C@H]2COC[C@@H]2NC(=O)CN(C(=O)Cn2cc(C)c(=O)[nH]c2=O)[C@H]2COC[C@@H]2NC(=O)CN(C(=O)Cn2cnc3c(=O)[nH]c(N)nc32)[C@H]2COC[C@@H]2NC(=O)CN(C(=O)Cn2cc(C)c(=O)[nH]c2=O)[C@H]2COC[C@@H]2NC(=O)CN(C(=O)Cn2cnc3c(N)ncnc32)[C@H]2COC[C@@H]2NC(=O)CN(C(=O)Cn2cnc3c(=O)[nH]c(N)nc32)[C@H]2COC[C@@H]2N)c(=O)[nH]c1=O |  | UV melting | RNA duplex with T·C mismatch | pH 7.2, 1 µM each strand |  | Tm | 52.5 °C |
| CCc1cc(OCCOCCN(C)C)ccc1Cl |  |  | zebrafish larvae, 7 dpf | 10 µM, minute 6 |  | larval motion | 9.2 ± 1.4 pixels/frame |
| O=S(=O)(NCc1ccncc1)c1ccc(C2CCCCC2)cc1 |  | immunohistochemistry | CK-p25 mice male, hippocampus | ip, 0.1 mg/kg daily, 2 wk | reference: vehicle | GFAP area reduction | ~46% |
| CC1(C)CC[C@@]2(CO)C(=C3C=C[C@@H]4[C@@]5(C)CC[C@H](O)[C@@](C)(CO)[C@@H]5CC[C@@]4(C)[C@]3(C)C[C@@H]2O)C1 |  | H&E staining | Mus musculus, chronic-plus-binge ethanol, liver | dose not given |  | steatosis area | 0.454% and 0.435% and 0.468% and 0.429% and 0.451% and 0.418% |
| Cn1ncc2cc(-c3cncc(Cl)c3N3CCC4(CCNC4=O)CC3)ccc21 | LS174T | gene expression, microarray, item: CARD6 mRNA |  | concentration not given, 4 h | reference: untreated cells | log2 fold change | -1.47 |
| CCC(=O)N[C@@H](C)C(=O)OCC(=O)N[C@@H](C)C(=O)O |  |  | water | pH 5, 50 °C |  | chain scission rate constant | 0.0044 h⁻¹ |
| O=C(CCN1CCN(C/C=C/c2ccccc2)CC1)Nc1ccccc1 |  | locomotor activity in dark | zebrafish larvae, 7 dpf | 10 µM, minute 7, dark phase |  | larval motion | 2.8 ± 0.6 pixels/frame |
| Cc1cn(CC(=O)N(CC(=O)N[C@H]2CCC[C@@H]2N(CC(=O)N[C@H]2COC[C@@H]2N(CC(=O)N[C@H]2COC[C@@H]2N(CC(=O)N[C@H]2COC[C@@H]2N(CC(=O)NCCOCCOCC(N)=O)C(=O)Cn2cnc3c(N)ncnc32)C(=O)Cn2cc(C)c(=O)[nH]c2=O)C(=O)Cn2cnc3c(N)ncnc32)C(=O)Cn2cnc3c(=O)[nH]c(N)nc32)[C@H]2CCC[C@@H]2NC(=O)CN(C(=O)Cn2cnc3c(=O)[nH]c(N)nc32)[C@H]2CCC[C@@H]2NC(=O)CN(C(=O)Cn2cc(C)c(=O)[nH]c2=O)[C@H]2COC[C@@H]2NC(=O)CN(C(=O)Cn2cnc3c(N)ncnc32)[C@H]2COC[C@@H]2NC(=O)CN(C(=O)Cn2cnc3c(=O)[nH]c(N)nc32)[C@H]2COC[C@@H]2N)c(=O)[nH]c1=O |  | UV melting | DNA duplex with T·C mismatch | pH 7.2, 1 µM each strand |  | Tm | 57.1 °C |
| CN(C)CCOCCOc1ccc(Cl)c(Cl)c1 |  | locomotor activity in dark | zebrafish larvae, 7 dpf | 10 µM, minute 1, dark phase |  | larval motion | 2.3 ± 1 pixels/frame |
| Cc1ccc([N+](=O)[O-])cc1S(=O)(=O)N(C)/N=C/c1cnc2ccc(Br)cn12 |  |  | peripheral blood mononuclear cells, Sézary syndrome patients | 200 nM |  | live cells | 42.8% |

Repeated from above:
| Structure (SMILES) | tested on | test | test system | conditions | how to read | endpoint | result |
| --- | --- | --- | --- | --- | --- | --- | --- |
| CN(Cc1ccc(/C=C/C(=O)NO)cc1)CC12CC3CC(CC(C3)C1)C2 |  | item: H4K12ac | mouse | 24 h, cell-based |  | EC50 | 100 nM |
| C=CC(=O)Nc1cccc(Cn2ncc3cnc(Nc4cnn(CCOC)c4)nc32)c1 | human AMPK-alpha1 | KINOMEscan |  | 100 nM | reference: control | binding | 100% |
| OC(COCC1COc2ccccc2O1)CN1CCN(c2ccccc2)CC1 (stereo not shown) |  |  | zebrafish larvae, 7 dpf | 10 µM, minute 6 |  | larval motion | 3 ± 1.2 pixels/frame |
| CC(=O)[O-].O.O.O.O.[Ni+2].[O-]c1ccc(Br)cc1C=NCCN1CCOCC1 |  | hydroxyl radical scavenging |  | 120 µM |  | inhibition | 32.8% |
